{"data": "Experimental data from different studies", "note": "Every numbered part comes from another study and shows a few of its results, in no order."}
{"data": "Block 1", "target": "Sal-like protein 4, full length isoform A (SALL4, Homo sapiens, UniProt Q9UJQ4, residues 1-1053)", "technique": "universal PBM", "molecule type": "double-stranded DNA, one strand shown", "medium": "in vitro", "concentration": "600 nM", "notes": "8-mer, flanks averaged, mean of replicates", "direction": "higher = stronger binding", "UniProt Q9UJQ4, sequence (whole entry, looked up)": "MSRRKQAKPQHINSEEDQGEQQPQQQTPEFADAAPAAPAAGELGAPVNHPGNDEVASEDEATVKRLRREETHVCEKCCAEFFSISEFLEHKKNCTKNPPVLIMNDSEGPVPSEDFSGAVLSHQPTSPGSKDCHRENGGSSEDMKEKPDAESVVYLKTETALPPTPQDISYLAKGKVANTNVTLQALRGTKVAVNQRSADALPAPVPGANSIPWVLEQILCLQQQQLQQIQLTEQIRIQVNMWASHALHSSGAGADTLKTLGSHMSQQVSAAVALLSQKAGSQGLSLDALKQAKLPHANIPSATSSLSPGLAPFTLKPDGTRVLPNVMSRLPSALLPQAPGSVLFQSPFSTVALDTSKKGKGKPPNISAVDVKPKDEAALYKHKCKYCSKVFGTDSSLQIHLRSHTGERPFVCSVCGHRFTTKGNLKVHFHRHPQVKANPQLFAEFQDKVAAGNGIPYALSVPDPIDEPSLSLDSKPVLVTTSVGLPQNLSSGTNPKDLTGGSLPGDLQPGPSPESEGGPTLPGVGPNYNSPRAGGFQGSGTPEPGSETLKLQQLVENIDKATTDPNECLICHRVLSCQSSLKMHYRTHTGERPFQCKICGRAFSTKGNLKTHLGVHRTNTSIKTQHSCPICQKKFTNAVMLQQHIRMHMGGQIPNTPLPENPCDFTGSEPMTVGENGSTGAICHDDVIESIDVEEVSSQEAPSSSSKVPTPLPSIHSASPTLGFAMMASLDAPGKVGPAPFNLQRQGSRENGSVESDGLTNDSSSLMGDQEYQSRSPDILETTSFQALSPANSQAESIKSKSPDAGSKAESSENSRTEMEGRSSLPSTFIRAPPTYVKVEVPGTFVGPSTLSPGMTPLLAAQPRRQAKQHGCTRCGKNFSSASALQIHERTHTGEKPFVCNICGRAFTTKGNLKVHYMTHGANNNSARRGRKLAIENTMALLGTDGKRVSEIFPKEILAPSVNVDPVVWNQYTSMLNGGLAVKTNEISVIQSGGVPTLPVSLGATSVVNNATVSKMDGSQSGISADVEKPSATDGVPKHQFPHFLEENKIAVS"}
{"Strand": "ACCGCGCC", "E-score": -0.385}
{"Strand": "CTTTCATC", "E-score": -0.0413}
{"Strand": "CTCCGGGC", "E-score": -0.328}
{"Strand": "AAACAGAA", "E-score": 0.254}
{"Strand": "CACTTCGG", "E-score": -0.137}
{"Strand": "AAAGTTGT", "E-score": 0.207}
{"Strand": "ATCCGCAG", "E-score": -0.152}
{"data": "Block 2", "target": "Ras GTPase-activating protein-binding protein 1, full length (G3BP1, Homo sapiens, UniProt Q13283)", "technique": "RNA Bind-n-Seq", "molecule type": "RNA", "medium": "in vitro", "concentration": "200 nM", "notes": "whole 134-nt RNA, ends assumed", "together with": "150 mM LiCl", "relative to": "input library", "direction": "higher = stronger binding", "each molecule": "7-deaza-guanosine replaces G", "shared flanks, not repeated": "GGGAGUUCUACAGUCCGACGAUC … UGGAAUUCUCGGGUGUCAAGG", "UniProt Q13283, sequence (whole entry, looked up)": "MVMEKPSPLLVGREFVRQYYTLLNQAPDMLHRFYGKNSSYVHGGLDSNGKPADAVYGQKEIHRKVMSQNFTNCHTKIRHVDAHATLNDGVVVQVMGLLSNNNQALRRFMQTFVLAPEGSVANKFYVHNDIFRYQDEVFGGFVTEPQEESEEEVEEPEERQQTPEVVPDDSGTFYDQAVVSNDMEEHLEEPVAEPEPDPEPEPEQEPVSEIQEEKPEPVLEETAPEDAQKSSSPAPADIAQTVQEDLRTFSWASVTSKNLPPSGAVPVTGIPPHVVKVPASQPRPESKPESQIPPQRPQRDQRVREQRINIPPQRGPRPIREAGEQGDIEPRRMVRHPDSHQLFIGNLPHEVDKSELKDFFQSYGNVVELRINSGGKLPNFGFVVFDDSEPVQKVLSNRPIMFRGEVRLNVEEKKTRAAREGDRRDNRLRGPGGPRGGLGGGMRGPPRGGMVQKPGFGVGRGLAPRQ"}
{"Strand": "CAAGUCCUGUGCUACACAUCGUAUGUACCGAAUCGGUUUUUGGAAAAAAAGGUGGAAAGUAUUAUGUUACGCCGUUCGGAUCUGCACUUC", "log2 enrichment": -1.28}
{"Strand": "CAAGUCCUGUGCUACACAUCGUAUGUACCGAAUCGGUUUUUGGUUUUUUUGGUGGAAAGUAUUAUGUUACGCCGUUCGGAUCUGCACUUC", "log2 enrichment": -0.841}
{"Strand": "ACCAUGCAGGUGGGCAUCUUUGGGAAGUAAAGCAAGGGGGGGAUAGGGAGGGGGGUAACACUUUGGGAACAGGUGGUCCCAGGUCGUUUC", "log2 enrichment": 0.479}
{"Strand": "UCCUCAAGUCCUGUGCUACACAUCGUAUGUACCGAAUCGGAAAGGUGGUGGAAAGUAUUAUGUUACGCCGUUCGGAUCUGCACUUCCAGC", "log2 enrichment": -0.124}
{"Strand": "UGGGAGGUGGAUUUUGUUUAUUUUUUUAGCUCAUUUCCAGGGGUGGGAAUUUUUUUUUAAUAUGUGUCAUGAAUAAAGUUGUUGUUGAAA", "log2 enrichment": 0.111}
{"data": "Block 3", "target": "Histone acetyltransferase KAT6A, both winged helices, GST fusion (KAT6A, Homo sapiens, UniProt Q92794, residues 1-181)", "technique": "protein binding microarray", "molecule type": "double-stranded DNA, one strand shown", "medium": "in vitro", "concentration": "not given", "notes": "8-mer, flanks averaged, mean of 2 arrays, mostly near background", "relative to": "not given", "direction": "higher = stronger binding", "Residues (chain)": "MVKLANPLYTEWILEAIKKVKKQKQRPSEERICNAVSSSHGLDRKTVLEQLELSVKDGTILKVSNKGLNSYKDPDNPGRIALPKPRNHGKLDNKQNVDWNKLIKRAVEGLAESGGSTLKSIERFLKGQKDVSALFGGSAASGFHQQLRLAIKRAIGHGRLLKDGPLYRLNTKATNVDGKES"}
{"Strand": "AGTTGGGC", "E-score": -0.226}
{"Strand": "GTGTTGAA", "E-score": -0.0823}
{"Strand": "GAGGTGGA", "E-score": -0.149}
{"Strand": "CAGTCCGG", "E-score": 0.0965}
{"Strand": "GTCCTGAA", "E-score": -0.18}
{"Strand": "TACGGGGA", "E-score": 0.191}
{"data": "Further values, each from its own experiment"}
{"Substance": "PhoQ, residues 284 288 289 292 302 303 SLANKL", "target": "PhoP, residues 12 14 15 18 19 LHHSG (Escherichia coli, UniProt P23836)", "test": "Sort-seq, measured: YFP reporter", "test system": "E. coli", "conditions": "PhoQ-PhoP variant library, together with: 10 µM Mg2+", "how to read": "relative to: high Mg2+ state, higher = stronger signaling", "endpoint": "fold induction", "value": 2.67}
{"note": "Repeated from above (block 2):"}
{"Strand": "CAAGUCCUGUGCUACACAUCGUAUGUACCGAAUCGGUUUUUGGUUUUUUUGGUGGAAAGUAUUAUGUUACGCCGUUCGGAUCUGCACUUC", "log2 enrichment": -0.841}
{"Strand": "ACCAUGCAGGUGGGCAUCUUUGGGAAGUAAAGCAAGGGGGGGAUAGGGAGGGGGGUAACACUUUGGGAACAGGUGGUCCCAGGUCGUUUC", "log2 enrichment": 0.479}
